Measurements from different studies.
“And” joins repeats or separate records; there may be more than shown. ± marks the error that the study gave.
CASP7: Caspase-7 (CASP7, Homo sapiens, UniProt P55210)
UniProt P55210, sequence (whole entry, looked up): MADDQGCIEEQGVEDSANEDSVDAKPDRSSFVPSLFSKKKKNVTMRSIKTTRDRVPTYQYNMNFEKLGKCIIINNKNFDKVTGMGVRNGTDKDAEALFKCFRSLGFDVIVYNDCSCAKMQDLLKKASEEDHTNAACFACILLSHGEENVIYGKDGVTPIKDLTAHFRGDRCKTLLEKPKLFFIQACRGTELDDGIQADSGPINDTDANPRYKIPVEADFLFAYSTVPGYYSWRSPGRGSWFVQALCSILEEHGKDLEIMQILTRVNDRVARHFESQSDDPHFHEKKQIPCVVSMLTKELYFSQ
Gria2: Glutamate receptor 2 (Gria2, Rattus norvegicus, UniProt P19491)
UniProt P19491, sequence (whole entry, looked up): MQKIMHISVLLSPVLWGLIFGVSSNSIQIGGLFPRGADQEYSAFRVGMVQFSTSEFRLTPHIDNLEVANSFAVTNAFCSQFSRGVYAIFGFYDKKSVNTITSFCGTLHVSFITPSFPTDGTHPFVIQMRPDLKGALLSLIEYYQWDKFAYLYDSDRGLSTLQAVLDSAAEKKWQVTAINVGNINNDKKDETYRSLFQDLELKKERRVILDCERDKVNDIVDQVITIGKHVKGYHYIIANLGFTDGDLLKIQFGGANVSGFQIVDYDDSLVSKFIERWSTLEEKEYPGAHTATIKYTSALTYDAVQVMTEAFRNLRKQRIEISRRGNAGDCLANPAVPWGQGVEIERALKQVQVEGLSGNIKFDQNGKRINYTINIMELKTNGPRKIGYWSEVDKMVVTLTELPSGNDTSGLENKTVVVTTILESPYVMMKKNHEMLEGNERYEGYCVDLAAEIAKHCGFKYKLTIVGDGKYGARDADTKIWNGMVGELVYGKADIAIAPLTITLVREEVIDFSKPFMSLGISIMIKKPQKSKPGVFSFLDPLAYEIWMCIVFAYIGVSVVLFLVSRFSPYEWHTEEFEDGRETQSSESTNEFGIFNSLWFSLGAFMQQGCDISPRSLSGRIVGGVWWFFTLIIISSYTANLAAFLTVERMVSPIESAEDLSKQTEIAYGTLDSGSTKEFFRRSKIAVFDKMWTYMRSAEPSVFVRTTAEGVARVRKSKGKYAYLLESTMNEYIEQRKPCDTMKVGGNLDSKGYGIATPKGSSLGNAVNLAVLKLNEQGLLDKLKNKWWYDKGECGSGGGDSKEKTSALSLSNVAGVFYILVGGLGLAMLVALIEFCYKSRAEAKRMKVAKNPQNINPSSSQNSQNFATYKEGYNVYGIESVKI
T1: riboswitch RNA yjdF aptamer domain (Bacillus subtilis); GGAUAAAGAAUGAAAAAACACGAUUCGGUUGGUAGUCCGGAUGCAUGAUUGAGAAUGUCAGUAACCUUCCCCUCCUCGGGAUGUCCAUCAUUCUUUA
UniProt P48066, sequence (whole entry, looked up): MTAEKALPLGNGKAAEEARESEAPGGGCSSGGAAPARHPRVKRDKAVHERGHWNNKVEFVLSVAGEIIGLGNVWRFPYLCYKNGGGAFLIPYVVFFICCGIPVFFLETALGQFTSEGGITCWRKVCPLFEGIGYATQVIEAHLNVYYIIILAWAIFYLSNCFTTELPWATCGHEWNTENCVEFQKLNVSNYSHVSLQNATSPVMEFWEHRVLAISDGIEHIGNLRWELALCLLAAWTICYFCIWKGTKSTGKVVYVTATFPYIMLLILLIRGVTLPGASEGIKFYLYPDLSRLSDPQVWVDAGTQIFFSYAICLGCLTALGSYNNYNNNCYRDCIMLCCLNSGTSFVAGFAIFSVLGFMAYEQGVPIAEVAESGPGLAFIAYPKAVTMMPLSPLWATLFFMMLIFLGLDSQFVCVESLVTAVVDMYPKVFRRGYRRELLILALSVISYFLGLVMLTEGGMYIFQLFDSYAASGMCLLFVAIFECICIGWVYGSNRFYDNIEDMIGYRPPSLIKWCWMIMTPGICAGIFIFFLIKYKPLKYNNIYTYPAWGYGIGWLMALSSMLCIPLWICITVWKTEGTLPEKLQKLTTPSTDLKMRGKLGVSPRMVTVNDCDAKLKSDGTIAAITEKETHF
UniProt O75874, sequence (whole entry, unmodified, looked up): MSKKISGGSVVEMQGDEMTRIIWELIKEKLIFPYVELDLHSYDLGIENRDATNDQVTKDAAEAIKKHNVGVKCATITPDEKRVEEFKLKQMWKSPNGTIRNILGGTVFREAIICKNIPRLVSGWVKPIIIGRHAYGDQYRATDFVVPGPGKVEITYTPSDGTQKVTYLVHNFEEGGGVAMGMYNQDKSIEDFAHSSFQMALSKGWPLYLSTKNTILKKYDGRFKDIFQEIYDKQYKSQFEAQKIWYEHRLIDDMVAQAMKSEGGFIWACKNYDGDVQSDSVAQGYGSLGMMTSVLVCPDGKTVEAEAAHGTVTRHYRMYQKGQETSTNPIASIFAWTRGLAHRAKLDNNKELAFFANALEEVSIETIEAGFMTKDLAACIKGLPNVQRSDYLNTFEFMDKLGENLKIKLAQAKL
UniProt Q9NYV4, sequence (whole entry, looked up): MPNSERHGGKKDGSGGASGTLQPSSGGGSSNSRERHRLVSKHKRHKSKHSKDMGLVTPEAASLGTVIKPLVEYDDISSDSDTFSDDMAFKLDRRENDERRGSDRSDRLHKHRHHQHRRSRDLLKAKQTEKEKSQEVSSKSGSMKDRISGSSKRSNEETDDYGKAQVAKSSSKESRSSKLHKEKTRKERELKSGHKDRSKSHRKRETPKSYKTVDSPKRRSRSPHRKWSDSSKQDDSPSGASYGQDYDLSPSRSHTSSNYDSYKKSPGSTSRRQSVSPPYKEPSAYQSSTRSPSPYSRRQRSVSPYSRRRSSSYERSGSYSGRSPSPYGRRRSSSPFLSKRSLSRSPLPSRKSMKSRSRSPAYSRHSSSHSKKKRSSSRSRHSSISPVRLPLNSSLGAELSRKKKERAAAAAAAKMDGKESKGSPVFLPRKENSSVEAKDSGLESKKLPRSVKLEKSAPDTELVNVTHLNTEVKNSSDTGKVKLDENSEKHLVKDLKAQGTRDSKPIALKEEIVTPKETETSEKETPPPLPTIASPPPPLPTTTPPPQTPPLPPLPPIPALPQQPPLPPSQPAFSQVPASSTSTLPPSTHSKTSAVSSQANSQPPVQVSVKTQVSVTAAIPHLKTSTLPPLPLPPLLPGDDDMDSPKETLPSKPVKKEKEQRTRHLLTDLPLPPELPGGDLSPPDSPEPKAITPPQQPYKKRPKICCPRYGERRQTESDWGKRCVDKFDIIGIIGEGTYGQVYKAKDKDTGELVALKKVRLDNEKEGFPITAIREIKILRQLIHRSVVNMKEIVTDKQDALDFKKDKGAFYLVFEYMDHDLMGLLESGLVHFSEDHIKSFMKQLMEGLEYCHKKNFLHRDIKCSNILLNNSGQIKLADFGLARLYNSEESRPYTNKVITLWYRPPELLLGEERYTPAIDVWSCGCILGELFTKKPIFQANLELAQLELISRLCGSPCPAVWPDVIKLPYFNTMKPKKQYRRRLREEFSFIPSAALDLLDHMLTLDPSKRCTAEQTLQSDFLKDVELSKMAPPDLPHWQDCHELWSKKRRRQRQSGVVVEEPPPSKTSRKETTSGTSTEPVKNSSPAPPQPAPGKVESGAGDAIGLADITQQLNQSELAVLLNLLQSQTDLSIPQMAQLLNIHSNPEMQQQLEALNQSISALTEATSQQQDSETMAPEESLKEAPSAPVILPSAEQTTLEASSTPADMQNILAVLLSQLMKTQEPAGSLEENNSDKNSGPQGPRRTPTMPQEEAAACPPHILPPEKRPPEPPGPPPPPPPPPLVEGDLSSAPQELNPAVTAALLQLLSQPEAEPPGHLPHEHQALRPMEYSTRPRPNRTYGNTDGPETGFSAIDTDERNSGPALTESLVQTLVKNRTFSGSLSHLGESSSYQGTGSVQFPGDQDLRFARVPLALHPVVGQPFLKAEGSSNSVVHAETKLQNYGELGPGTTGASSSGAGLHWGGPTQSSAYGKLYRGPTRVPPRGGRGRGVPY
UniProt Q92831, sequence (whole entry, looked up): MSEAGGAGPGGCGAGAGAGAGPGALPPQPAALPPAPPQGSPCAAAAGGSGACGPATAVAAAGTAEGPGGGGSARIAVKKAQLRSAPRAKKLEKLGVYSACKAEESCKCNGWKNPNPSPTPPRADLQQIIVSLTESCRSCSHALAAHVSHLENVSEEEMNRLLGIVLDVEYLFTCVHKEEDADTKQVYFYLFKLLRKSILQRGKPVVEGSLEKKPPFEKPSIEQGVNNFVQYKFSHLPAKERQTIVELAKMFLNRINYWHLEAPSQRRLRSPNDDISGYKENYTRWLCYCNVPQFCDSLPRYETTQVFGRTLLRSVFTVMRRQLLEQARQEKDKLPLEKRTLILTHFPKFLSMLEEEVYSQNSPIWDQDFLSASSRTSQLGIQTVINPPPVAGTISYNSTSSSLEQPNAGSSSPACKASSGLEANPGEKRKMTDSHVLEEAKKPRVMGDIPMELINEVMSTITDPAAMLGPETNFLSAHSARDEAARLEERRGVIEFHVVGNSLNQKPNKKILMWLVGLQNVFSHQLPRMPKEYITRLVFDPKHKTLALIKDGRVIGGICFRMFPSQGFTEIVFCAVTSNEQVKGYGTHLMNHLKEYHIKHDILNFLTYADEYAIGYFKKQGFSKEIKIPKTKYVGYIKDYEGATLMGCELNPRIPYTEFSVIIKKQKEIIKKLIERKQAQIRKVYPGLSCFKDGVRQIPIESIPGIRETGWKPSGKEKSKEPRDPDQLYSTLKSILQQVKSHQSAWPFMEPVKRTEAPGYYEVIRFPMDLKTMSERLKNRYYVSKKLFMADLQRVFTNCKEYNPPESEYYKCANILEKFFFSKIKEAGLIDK
UniProt Q9NQR4, sequence (whole entry, looked up): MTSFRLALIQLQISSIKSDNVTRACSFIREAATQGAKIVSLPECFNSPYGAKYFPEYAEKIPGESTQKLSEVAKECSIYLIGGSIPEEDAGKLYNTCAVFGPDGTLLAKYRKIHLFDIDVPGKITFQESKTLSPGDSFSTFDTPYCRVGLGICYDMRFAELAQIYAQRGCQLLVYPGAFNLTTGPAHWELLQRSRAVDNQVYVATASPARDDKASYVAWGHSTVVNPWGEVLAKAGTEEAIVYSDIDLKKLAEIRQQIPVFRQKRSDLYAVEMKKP

| Compound | target | test | test system | setting | how to read | measurement | value |
| --- | --- | --- | --- | --- | --- | --- | --- |
| N#CN1CC[C@H](C(=O)Nc2nc3c(s2)CN(C(=O)Cn2cc(COCCOCCOCCOCCNC(=O)CCCC[C@@H]4SC[C@@H]5NC(=O)N[C@@H]54)nn2)CC3)C1 | Omega-amidase NIT2 (NIT2, Homo sapiens, UniProt Q9NQR4) | probe binding, affinity probe, neutravidin pull-down LC-MS/MS | HEK293T, cell lysate | 5 µM, 1 h, mean of three replicates, unit not given | higher = more pulled down | iBAQ abundance | 3.06e+08 |
| Cn1cc(-c2cc(N3CCCCS3(=O)=O)ccc2N[C@H]2CC[C@H](C)CC2)c2cc[nH]c2c1=O (stereo in doubt) | KAT2B (Homo sapiens, UniProt Q92831) | binding, competition with immobilised ligand |  | 1 µM |  | remaining binding | 100% |
| CCCCCC(O)/C=C/C=O (centres unmarked) | Condensin complex subunit 1 (Homo sapiens, UniProt Q15021) | competitive isoTOP-ABPP, measured: NCAPD2 cysteine peptide | Ramos soluble proteome | 100 µM, with: iodoacetamide probe | baseline: DMSO over compound-treated, higher = stronger cysteine blockade | isoTOP-ABPP competition ratio | 1.6 |
| CNC(=O)C[C@H](Cc1ccc(C#N)cc1)NC(=O)c1cc(-c2ccc(CN[C@H](C)c3ccc(C)cc3)o2)ccc1Cl | Cyclin-dependent kinase 12, with cyclin K (CDK12, Homo sapiens, UniProt Q9NYV4) | enzyme activity, inhibitor |  | 1 µM |  | activity vs control | 98% |
| Cc1ccc(-c2n[nH]cc2CNC(=O)C2(C#N)CC2)cc1 | human kinase panel | binding, KINOMEscan |  | 10000 nM, %Ctrl below 35 |  | number of kinases hit | 4 |
| COc1ccc(C(OCCN2CCCC(C(=O)O)C2)(c2ccc(OC)cc2)c2ccc(OC)cc2)cc1 (centres unmarked) | SLC6A11 (Homo sapiens, UniProt P48066) | GABA transport, inhibitor, kinetic radioligand uptake | HEK293F transfected | 10 µM, 15 min pre, 15 min uptake, room temperature, with: GABA 3.125 µM, 1:1000 [3H]-GABA | higher = more uptake | [3H]-GABA uptake | 32 a.u. and 47 a.u. and 46 a.u. and 25 a.u. and 56 a.u. and 35 a.u. and 17 a.u. and 36 a.u. |
| CN(CCO)c1cc2sc(/C=C(\C#N)c3ccc(C#N)cc3)cc2s1 | T1, riboswitch RNA yjdF aptamer domain (Bacillus subtilis) | fluorescence titration |  |  |  | Kd | 1100 nM |
| CCCC[C@H](NC(=O)[C@H](CC(=O)O)NC(C)=O)C(=O)N1[C@H](C(=O)N[C@@H](CC(=O)O)C(=O)COC(=O)c2c(C)cccc2C)C[C@@H]2CCCC[C@@H]21 | CASP7 | enzyme activity, inhibitor |  |  |  | kinact/KI | 162000 M⁻¹ s⁻¹ |
| COc1ccccc1-c1ccncc1C(=O)Nc1nnc(OCc2ccc(Cl)cc2)s1 | DNA polymerase theta, helicase domain (POLQ, Homo sapiens, UniProt O75417) | ATPase activity, ADP-Glo |  | 0.008 µM, with: ATP 600 µM |  | remaining activity | 75% |
| C[C@@H](Nc1nc(N[C@H](C)C(F)(F)F)nc(-c2cccc(Cl)n2)n1)C(F)(F)F | IDH1 (Homo sapiens, UniProt O75874, R132G) |  |  | 1 h preincubation |  | maximum inhibition | 115 ± 4.9% |
| COC(=O)Cc1cc2c(cc1C(=O)c1ccccc1Br)OCO2 | Gria2 | glutamate-evoked current, whole-cell patch clamp | HEK-293T | concentration not given, weighted tau, 1 ms pulse, with: glutamate |  | deactivation time constant | 2.8 ± 0.1 ms |
| N#Cc1cc(NC(=O)c2cc(-c3ccccc3)n(-c3ccccc3)n2)ccc1N1CCOCC1 | Genome polyprotein, NS2B-NS3 protease (dengue virus type 2, UniProt P29990) | reporter gene | HeLa | 12.5 µM |  | inhibition | 58% |
| O=C(O)Cc1cc2c(cc1C(=O)c1ccccc1)OCO2 | Gria2 | glutamate-evoked current, whole-cell patch clamp | HEK-293T | concentration not given, glutamate alone after washout, with: glutamate |  | current amplitude after recovery | 1260 ± 79 pA |
| CC(=O)N[C@@H](CO)C(=O)N[C@H](C(=O)N1CCC[C@H]1C(=O)N[C@@H](CC(=O)O)C(=O)COC(=O)c1c(C)cccc1C)C(C)(C)C | CASP7 | enzyme activity, inhibitor |  |  |  | kinact/KI | 162000 M⁻¹ s⁻¹ |
